# Published values pooled from the literature.
# A part holds a random share of what one study measured.

# Study 1 — technique: RNA Bind-n-Seq; molecule type: RNA; sample: in vitro; concentration: 365 nM; baseline: no-protein control; direction: higher = stronger binding
# Target: RNA binding protein fox-1 homolog 2, RRM domain, GST-SBP tag (RBFOX2, Homo sapiens, UniProt O43251-10, residues 100-194)
# Setting: natural RNA segment, single round, ends assumed
# Construct (chain): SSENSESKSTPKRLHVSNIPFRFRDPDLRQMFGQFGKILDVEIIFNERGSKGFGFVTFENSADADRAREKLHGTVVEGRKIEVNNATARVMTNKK
Strand,RBNS enrichment (R)
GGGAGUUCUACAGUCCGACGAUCUUCAAAAAGCACAAUCAAUCUUUUGUUUGAAAAUCUAUAUAAAGUACAACUUGCUUUUAGCAUGAUUAUUUUCCUAAAUAAAAAGACAAAGAAUUUACUUACUUUAUGUUUGGAAUUCUCGGGUGCCAA,18.7
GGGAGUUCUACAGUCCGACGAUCCCAGUUAACAUGUAGAGCAUGGGCUCAAGAUGAAACCUUGUGUUUAUAGAACGGAUGUUUAGGUGAAGAAAUUGGUUCUUGGUUAUGUUUACAGCACUUGGGAUUGUGUUUGGAAUUCUCGGGUGCCAA,3.99
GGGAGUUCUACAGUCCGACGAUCCCUUGGCCUGAGAGGCAGCCAAGGACUAGAGGGGGAAGGAUAUCCCCCAAGUUCCCUCAGAGGCUUUUCCCAGCAGGUACCCCAUUCUGGGUAUCUGUCUGGUUCUAUUUUGGAAUUCUCGGGUGCCAA,0.275
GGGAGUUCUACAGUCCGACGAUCCAGUAGUUAGAUAUCACCUACAUAUACAUUUUUCCAUUUUAUGCUCUAUGAUCUGAAGAACAAAAAAAAAAGCUUUUUGACUUGUAUAAGAUUUAUGUCUACUGUAAACAUGGAAUUCUCGGGUGCCAA,0.854
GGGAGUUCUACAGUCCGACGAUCAUGCCAUUUUUAUAUUCCUAAUAAAUGGCAAAGAGACAAGAAUAGGACCUUGGAUGGAAAUUCCCUGGCAGAAAAUGAAACAUGGGAAUAAGAUGCUUGAACAAGUUAGAUGGAAUUCUCGGGUGCCAA,1.08
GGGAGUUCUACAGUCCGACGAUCUCCACGGUGACAUGUCAUUUGAUUGUAAAUUAAGUGUUCUGAUUAGUAAGAACUAAGCAGGGGGCCACAUGCUCUCAAUGGAGACAAUAAAGUGUUGUCUUUUUCUUAUUUGGAAUUCUCGGGUGCCAA,0.295
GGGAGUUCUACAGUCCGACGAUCCUUUUUUCUCAGUCCUAAUUUGAACAGGUCAAAGAUGUGUUCAGGCAUUCCAGGUAACAGGUGUGUAUGUAAAGUUAAAAAUAGGCUUUUUAGGAACUCACUCUUUAGAUUGGAAUUCUCGGGUGCCAA,0.374
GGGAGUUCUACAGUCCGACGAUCUGGGCAACAAGAACAAAACUCCAUCUCAAAAAAUAAAAAUCCCAAUCCCAAGUCGAAAUCACCUCUUGUUUUAAACAAGAAUGAAUCAUUACUGUGUAUGUUAGGGUAUUUGGAAUUCUCGGGUGCCAA,0.586

# Study 2 — technique: protein binding microarray; molecule type: double-stranded DNA, one strand shown; sample: in vitro; concentration: not given; baseline: not given; direction: higher = stronger binding
# Target: Histone acetyltransferase KAT6A, winged helix 2, GST fusion (KAT6A, Homo sapiens, UniProt Q92794, residues 85-181)
# Setting: 8-mer, flanks averaged, mean of 2 arrays, mostly near background
# Residues (chain): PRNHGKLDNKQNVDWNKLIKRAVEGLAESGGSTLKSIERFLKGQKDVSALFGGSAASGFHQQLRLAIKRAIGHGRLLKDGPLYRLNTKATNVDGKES
Strand,E-score
CTTGGACA,-0.0169
ACAGTGGC,0.0299
CCAAGGGC,0.11
ACTTATAC,-0.0477
CATCCAAA,-0.0873
GGCTCCAA,0.00983
AAGCAGCA,0.0775
AAACTAAA,0.0428
AAAGTGTC,-0.112
AAGTTTTG,0.0639
AGAATCAG,0.0368
GGAATCAC,-0.147
AGGTACGC,-0.0222
GAGTACGC,-0.0216
GGGCCCTA,-0.0324
ATACGCCG,-0.0556
AGCGGAAT,0.0329
ATGTAATG,-0.056
TGGCGTAA,0.112
GGCTACGA,0.063
GAAGTATA,0.0126
CGGCCCGA,0.215
CATGCCCG,0.118
CCGAGACC,0.129

# Study 3 — technique: universal PBM; molecule type: double-stranded DNA, one strand shown; sample: in vitro; concentration: not given; direction: higher = stronger binding
# Target: Sal-like protein 4, full length isoform B (SALL4, Homo sapiens, UniProt Q9UJQ4-2, residues 1-616)
# Setting: 8-mer, flanks averaged, mean of replicates
# Target sequence (chain): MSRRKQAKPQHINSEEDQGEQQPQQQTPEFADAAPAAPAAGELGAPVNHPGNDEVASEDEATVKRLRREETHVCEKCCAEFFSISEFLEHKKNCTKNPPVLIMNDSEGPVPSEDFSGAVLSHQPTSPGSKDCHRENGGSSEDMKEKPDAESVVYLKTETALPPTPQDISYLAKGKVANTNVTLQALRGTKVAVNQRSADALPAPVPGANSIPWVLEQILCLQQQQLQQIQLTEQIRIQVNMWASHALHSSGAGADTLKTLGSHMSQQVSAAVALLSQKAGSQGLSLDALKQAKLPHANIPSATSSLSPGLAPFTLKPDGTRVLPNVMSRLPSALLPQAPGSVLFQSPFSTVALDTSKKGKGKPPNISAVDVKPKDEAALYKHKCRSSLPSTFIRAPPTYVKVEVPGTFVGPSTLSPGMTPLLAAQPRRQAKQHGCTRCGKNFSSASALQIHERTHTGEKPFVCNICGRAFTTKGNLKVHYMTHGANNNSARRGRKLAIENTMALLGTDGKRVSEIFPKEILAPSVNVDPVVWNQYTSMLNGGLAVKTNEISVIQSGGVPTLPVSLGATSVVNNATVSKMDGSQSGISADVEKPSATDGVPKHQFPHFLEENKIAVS
Strand,E-score
AGAGATAG,0.113
CTGGGCTC,-0.257
ACGCACGG,-0.224
CCAACGGA,-0.239
ACAGTACG,0.0977
ATCTCTGA,0.0207
AAAGGAGT,0.0489
CCATTCGA,-0.00786
GGATGTCA,-0.0198
TAGGGATA,0.158
ACTTGGGC,-0.118
GAGGACGA,-0.189
ACAAATCA,0.218
CCTGATTA,0.14
AAGCATTC,0.125
ATCTGGAA,0.0876
AGTTTCAT,0.247
TAAAGGGA,0.124
GGTTTGTA,0.04
AGCCTCGA,-0.214
AGGAGAAA,0.0423
ATGCGACC,-0.0178
GGCTTTAA,0.0695
GATTAACA,0.207
CGCTGAGC,-0.22

# Study 4 — technique: RNA Bind-n-Seq; molecule type: RNA; sample: in vitro; concentration: not given; baseline: input RNA pool; direction: higher = stronger binding
# Target: RING finger protein unkempt homolog, zinc fingers 1-6, GST-SBP tag (UNK, Homo sapiens, UniProt Q9C0B0, residues 30-357)
# Setting: RNA with constant flanks, human-mouse chimeric sites, ends assumed
# Construct (chain): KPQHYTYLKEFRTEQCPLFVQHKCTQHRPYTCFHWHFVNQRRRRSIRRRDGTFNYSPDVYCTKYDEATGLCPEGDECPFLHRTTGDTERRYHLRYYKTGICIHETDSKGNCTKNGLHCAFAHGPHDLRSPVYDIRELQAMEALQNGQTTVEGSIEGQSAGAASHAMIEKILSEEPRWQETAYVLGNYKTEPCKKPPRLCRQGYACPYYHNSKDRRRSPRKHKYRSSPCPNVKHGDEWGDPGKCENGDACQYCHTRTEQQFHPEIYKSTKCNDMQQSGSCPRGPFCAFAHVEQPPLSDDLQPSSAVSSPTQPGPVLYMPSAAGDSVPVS
Strand,bound/input enrichment
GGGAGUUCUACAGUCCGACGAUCUUUCUACUGCAGCAAACCAUGCUACGAAUUAAGGAUCCUAAGAAGUCCCUGGAUUUUUAUACUAGAGUUCUUGGACUGACCCUCCUGCAGAAGCUUGACUUCCCUGCUAUGAAGUUCUCGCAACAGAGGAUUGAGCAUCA,0.151 ratio
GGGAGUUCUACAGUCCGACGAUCGCCACCAGAUCCCAGAAACAUGACCCUUGCAGCCUAUAAAGAGAAGAUGAAGGAGCUCCCGCUGGUGUCCUUGUUCUGCUCUUGCUUCCUGGCCGAUCCCCUGAAUAAGUCGUCCUACAACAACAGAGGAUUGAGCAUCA,0.195 ratio
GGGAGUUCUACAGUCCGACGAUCCACACACUCUUCUGCGGGACCCUCAUCUUGCAGGCCCGGGCCUAUGUGGGACCCCGUGUCCUGGCAGUGGUGACCCGCACAGGGUUCUGCACAGCCAAAGGGGGCCUGGUGAGCUCCAUCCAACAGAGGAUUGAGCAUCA,0.0414 ratio
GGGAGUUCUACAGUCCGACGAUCAUAGAUGAAAUUGAUGUGGACCAGGAAGGAAUUGCUGAAAUGAUGCUGGAUGAAAAUGCUAUUGCUCAGGUCCCACGCCCUGGCACAUCUUUGAAGCUCCCUGGAACUAACCAAACAGGACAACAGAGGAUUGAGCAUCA,0.238 ratio
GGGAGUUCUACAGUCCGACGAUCUAAGUCCUGUGCCAGCACUUCGCUCAUAAAGUUUUAAAUUCUGGACCAAUAGUGUUUGUUUCCUGAUUUUUGUAUUCAAUACUUUGCCUAGUAUGUAACUCACUCUUACUGAUAAUAAAACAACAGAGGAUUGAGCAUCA,1.02 ratio
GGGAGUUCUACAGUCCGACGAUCCUGUGACCACAAGAUCCUACCUGAGUGGCAGCUGAAGUUGACUCCCUCUCCUUGCCUGAACCCCCCCCCACUGCCCCUUGAGUCCACGCAGAAUUCCGAGAUGUUGCCUCUGCACGGUUCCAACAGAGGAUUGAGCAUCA,1.03 ratio
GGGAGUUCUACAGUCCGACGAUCUCGGAUGCUGUGCUGGGUCACUUUUCAUAUCCAGAUCCUUCCCAGUGGACAGAUGAAGAACUGGGAAUCCCUCCUGAUGACGAGGACUGACACUGUAGACUCAGCCUACGAGUAGGAGCACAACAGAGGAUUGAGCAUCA,0.232 ratio
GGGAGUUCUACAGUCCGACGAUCAAAGUGAUGACUAUGUUUGUCCAACGACAGGUGUUUGCGGAGAGCAAGGAUGAGAUUGCGUUAGUCCUCUAUGGCACAGAUGGCACUGAUAAUGCCCUUGCUGGCAAGGACCAGUAUCAGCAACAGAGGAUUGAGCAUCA,0.138 ratio

# Some of these lines once more (study 3):
Strand,E-score
ATCTCTGA,0.0207
AAAGGAGT,0.0489
CCATTCGA,-0.00786
GGATGTCA,-0.0198
TAGGGATA,0.158
ACTTGGGC,-0.118
GAGGACGA,-0.189
ACAAATCA,0.218
CCTGATTA,0.14
AAGCATTC,0.125
